Results from different studies.
Compare with care: the assays were run in different laboratories. Values joined by “and” are separate records of one study, mostly repeats; a detail may differ. ± marks the error that the study gave.
Genome polyprotein NS3 helicase domain: Genome polyprotein, NS3 helicase domain (Hepatitis C virus genotype 1b, UniProt Q9WMX2)
ESR1: Estrogen receptor (ESR1, Homo sapiens, UniProt P03372)

SMILES | target | assay | system | conditions | scale | measurement | value
COCCC(=O)N1CCC(Oc2ccccc2)C1 (centres unmarked) | WD repeat-containing protein 91 (Homo sapiens, UniProt A4D1P6) | binding, affinity selection mass spectrometry | – | – | relative to: other proteins in batch | fold enrichment | 0.946
COc1cc(Cc2cnc(N)nc2N)cc(OC)c1OC | Genome polyprotein NS3 helicase domain | – | – | 100 µM | – | inhibition | 1%
CC1=CC(=O)c2ccccc2C1=O | ancestral FSP1 | oxidoreductase activity, substrate | – | added: co-substrate 100 µM fixed | – | kcat | 8.86 ± 0.45 s⁻¹
N#C/C(=C\c1ccc(O)c(O)c1)C(=O)NCc1ccccc1 | Genome polyprotein NS3 helicase domain | DNA binding, inhibitor | hepatitis C virus | 100 µM, added: Cy5-dT15 DNA | – | inhibition | 0%
O=c1cc(-c2ccc(O)cc2)oc2cc(O)c(O)c(O)c12 | ESR1 | array formation | PRL-HeLa | – | relative to: EC50 ERβ over EC50 ERα | selectivity ratio | 0.728
CC(=O)N[C@@H](CC(N)=O)C(=O)N[C@@H](CC(C)C)C(=O)NCC(=O)N[C@@H](CCCCN)C(=O)N[C@@H](Cc1c[nH]cn1)C(=O)N[C@@H](CCC(=O)O)C(=O)N[C@@H](CCCCN)C(=O)N[C@@H](Cc1ccccc1)C(=O)N[C@@H](CO)C(=O)N[C@@H](CCC(=O)O)C(=O)N[C@H](C(=O)N[C@@H](CC(C)C)C(=O)N[C@@H](CCCCN)C(=O)N[C@@H](CCCNC(=N)N)C(=O)N[C@@H](CC(C)C)C(=O)N[C@@H](CCCNC(=N)N)C(=O)N[C@@H](CC(C)C)C(=O)N[C@@H](CCC(N)=O)C(N)=O)C(C)C | Calmodulin-1 (CALM1, Homo sapiens, UniProt P0DP23) | ITC | – | concentration not given, full-length, added: CaCl2 1 mM | – | binding stoichiometry | 2.12
CN(C)CCC=C1c2ccccc2CCc2ccccc21 | Voltage-gated potassium channel, KQT; KCNQ2(Kv7.2)/KCNQ3(Kv7.3) (KCNQ3/KCNQ2, Homo sapiens, UniProt O43525+O43526) | potassium current, antagonist, automated patch clamp | HEK293 cells | – | – | IC50 | 9.78 µM
Nc1nc2c(ncn2[C@@H]2O[C@H](COP(=O)(O)O)[C@@H](O)[C@H]2O)c(=O)[nH]1 | GUK1 (Homo sapiens, UniProt Q16774, D103A) | enzyme activity, NADH-coupled | – | 62.5 µM | – | reaction rate | 7.26 s⁻¹ and 7.7 s⁻¹ and 6.87 s⁻¹
CCC(=O)NS(=O)(=O)c1ccc(-c2c(-c3ccccc3)noc2C)cc1 | RORC (Homo sapiens, UniProt P51449) | reporter gene, Gal4 hybrid reporter | – | 50 µM | relative to: vehicle | activation | 0.82 fold
CC(/C=C/c1cccc(Oc2ccc(F)cc2)c1)N(O)C(N)=O (centres unmarked) | Genome polyprotein NS3 helicase domain | DNA binding, inhibitor | hepatitis C virus | 100 µM, added: Cy5-dT15 DNA | – | inhibition | 0%
COc1cc(/C=C/c2cc(/C=C/c3ccc(O)c(OC)c3)n(-c3cccc([N+](=O)[O-])c3)n2)ccc1O | haemin | binding, isothermal titration calorimetry | – | pH 7.4, 37 °C | – | ΔG | -9.4 ± 0.65 kcal/mol
O=C(COP(=O)(O)O)[C@@H](O)[C@H](O)[C@H](O)COP(=O)(O)O | RAN (Homo sapiens, UniProt P62826) | thermal proteome profiling | HepG2 cell lysate | concentration not given, 57 over 37 °C | relative to: compound over control | thermal stability ratio | 0.583 and 0.5 and 0.52
Nc1ncnc2c1ncn2[C@@H]1O[C@H](COP(=O)(O)CP(=O)(O)OP(=O)(O)O)[C@@H](O)[C@H]1O | P2X purinoceptor 1 (P2RX1, Homo sapiens, UniProt P51575, E282A) | saturation binding | HEK293 | 103 nM | – | specific binding | 2520 CCPM and 1560 CCPM
CC1=C(CC(=O)O)c2cc(F)ccc2/C1=C\c1ccc([S+](C)[O-])cc1 (centres unmarked) | Genome polyprotein NS3 helicase domain | DNA binding, inhibitor | hepatitis C virus | 100 µM, added: Cy5-dT15 DNA | – | inhibition | 1%
N[C@@H](Cc1ccccc1)C(=O)O | N-alpha-acetyltransferase 80 (NAA80, Homo sapiens, UniProt Q93015) | substrate, DTNB | – | 2 mM, 30 min, 37 °C, added: acetyl-CoA 500 µM | – | product formation | -1.01 µM
CN1[C@@H](CC(=O)c2ccccc2)CCC[C@H]1C[C@H](O)c1ccccc1.Cl | Genome polyprotein NS3 helicase domain | DNA binding, inhibitor | hepatitis C virus | 100 µM, added: Cy5-dT15 DNA | – | inhibition | 0%
CC12CC3CC(C)(C1)CC(N)(C3)C2 | Glutamate receptor 2 (Homo sapiens, UniProt P42262) | ion current, agonist, SyncroPatch patch clamp | HEK293 | 10 µM | – | activation | 3%
Nc1ccc(C(=O)O)cc1 | BEST1, with wild-type BEST1 (Homo sapiens, UniProt O76090, A10T) | whole-cell patch clamp | HEK293 co-expressing WT and A10T mutant | concentration not given, membrane potential 80 mV | – | current density | 34.4 pA/pF and 47.7 pA/pF and 28.6 pA/pF and 26.2 pA/pF and 13.4 pA/pF
CN1CCc2ccc(C(=O)N3CCN(C(=O)C4CCC(C#N)CC4)CC3)cc2C1 (centres unmarked) | WD repeat-containing protein 91, WD40 domain, residues 392–747 (Homo sapiens, UniProt A4D1P6) | binding, SPR single-concentration screen | – | 45 µM | – | SPR response | -2.2 RU and -4 RU
CCOCc1nc(O)c(-c2nnc(Cc3ccc(Cl)cn3)o2)c(O)c1-c1c(OC)cccc1OC | Apelin receptor (APLNR, Homo sapiens, UniProt P35414) | GαoB activation, agonist, BRET biosensor | HEK293 | – | – | Emax | 110 ± 5%
COc1ccc(-c2cc(=O)c3c(O)c(OC)c(OC)c(OC)c3o2)cc1OC | ESR1 | array formation | PRL-HeLa | – | relative to: EC50 ERβ over EC50 ERα | selectivity ratio | 0.655
CC[C@H](C)[C@@H]1NC(=O)[C@H](C)NC(=O)[C@H]([C@@H](C)CC)NC(=O)[C@H](CCC(N)=O)NC(=O)[C@H](C)NC(=O)[C@H](CCCNC(=N)N)NC(=O)[C@H](C(C)C)NC(=O)[C@H](CC(C)C)NC(=O)[C@H](CCC(=O)O)NC(=O)[C@H](CCCNC(=N)N)NC(=O)CNC(=O)[C@@H](NC(=O)[C@H](CC(C)C)NC(=O)[C@H](CCCCN)NC(=O)[C@@H](NC(=O)[C@@H](NC(=O)[C@H](CCC(=O)O)NC(=O)[C@H](CCC(=O)O)NC(=O)[C@H](CCSC)NC(=O)[C@H](Cc2c[nH]c3ccccc23)NC(=O)[C@H](CO)NC(=O)[C@@H](N)CC(=O)O)C(C)C)[C@@H](C)CC)CSSC[C@@H]2NC(=O)[C@@H](NC(=O)[C@H](CCCCN)NC(=O)[C@H](CC(N)=O)NC(=O)[C@H](C)NC(=O)[C@H](CC(C)C)NC(=O)[C@H](C)NC(=O)[C@H](CO)NC(=O)[C@H](Cc3ccc(O)cc3)NC(=O)[C@H](CC(C)C)NC(=O)[C@H](CCC(N)=O)NC(=O)c3ccc(-c4c5ccc(=[N+](C)C)cc-5oc5cc(N(C)C)ccc45)c(C(=O)[O-])c3)CSSC[C@H](NC(=O)CNC(=O)[C@H](C(C)C)NC(=O)[C@H](Cc3c[nH]cn3)NC2=O)C(=O)N[C@@H]([C@@H](C)O)C(=O)N[C@@H](CCCCN)C(=O)N[C@@H](CCCNC(=N)N)C(=O)N[C@@H](CO)C(=O)N[C@@H](CC(C)C)C(=O)N[C@@H](C)C(=O)N[C@@H](CCCNC(=N)N)C(=O)N[C@@H](Cc2ccccc2)C(=O)N[C@H](C(=O)O)CSSC[C@@H](C(=O)NCC(=O)N[C@@H](CCSC)C(=O)N[C@@H](CO)C(=O)N[C@H](C(=O)N[C@@H](Cc2c[nH]c3ccccc23)C(=O)N[C@@H](CO)C(=O)O)[C@@H](C)O)NC1=O | Relaxin receptor 1 (RXFP1, Homo sapiens, UniProt Q9HBX9, F76A/Y80A) | binding, NanoBRET | – | concentration not given, added: relaxin 100 nM | – | fast dissociation fraction | 65.5%
CC[C@H](C)[C@H](NC(=O)[C@H](CCSC)NC(=O)[C@H](CCSC)NC(=O)[C@H](C)NC(=O)[C@H](C)NC(=O)[C@H](Cc1ccc(O)cc1)NC(=O)[C@H](C)NC(=O)[C@H](CCCCN)NC(=O)CNC(=O)[C@@H](NC(=O)[C@@H](NC(=O)[C@H](CCSC)NC(=O)[C@H](Cc1c[nH]cn1)NC(=O)CN)[C@@H](C)O)C(C)C)C(=O)N[C@@H](CCSC)C(=O)N[C@@H](CCC(=O)O)C(=O)N[C@@H](Cc1ccc(O)cc1)C(=O)N[C@@H](Cc1ccc(O)cc1)C(=O)N[C@@H](CCCNC(=N)N)C(=O)N[C@@H](CCC(N)=O)C(=O)N[C@@H](CO)C(=O)N[C@@H](CCCCN)C(=O)N[C@@H](C)C(=O)N[C@@H](CCCCN)C(=O)N[C@@H](CCCCN)C(=O)N[C@@H](CC(C)C)C(=O)N[C@@H](CCC(N)=O)C(=O)N[C@@H](C)C(=O)N[C@@H](CCSC)C(=O)N[C@@H](CCCNC(=N)N)C(=O)O | Calmodulin-1, Ca2+-bound C-lobe (CALM1, Homo sapiens, UniProt P0DP23) | binding, isothermal titration calorimetry | – | pH 7.4, 15 °C, Ca2+-bound C-lobe, added: CaV2.1 IQ peptide | – | stoichiometry | 0.97 ± 0.01
C=CC(=O)N1CCC[C@@H](n2nc(-c3ccc(Oc4ccccc4)cc3)c3c(N)ncnc32)C1 | SRMS (Homo sapiens, UniProt Q9H3Y6) | – | – | 1 µM | – | remaining activity | 87.2%
CC[C@H](C)[C@H](NC(=O)[C@H](CCCCN)NC(=O)CNC(=O)[C@@H](NC(=O)[C@@H](NC(=O)[C@H](CCSC)NC(=O)[C@H](Cc1c[nH]cn1)NC(=O)CN)[C@@H](C)O)C(C)C)C(=O)N[C@@H](Cc1ccc(O)cc1)C(=O)N[C@@H](C)C(=O)N[C@@H](C)C(=O)N[C@@H](CCSC)C(=O)N[C@@H](CCSC)C(=O)N[C@H](C(=O)N[C@@H](CCSC)C(=O)N[C@@H](CCC(=O)O)C(=O)N[C@@H](Cc1ccc(O)cc1)C(=O)N[C@@H](C)C(=O)N[C@@H](CCCNC(=N)N)C(=O)N[C@@H](CCC(N)=O)C(=O)N[C@@H](CO)C(=O)N[C@@H](CCCCN)C(=O)N[C@@H](C)C(=O)N[C@@H](CCCCN)C(=O)N[C@@H](CCCCN)C(=O)N[C@@H](CC(C)C)C(=O)N[C@@H](CCC(N)=O)C(=O)N[C@@H](C)C(=O)N[C@@H](CCSC)C(=O)N[C@@H](CCCNC(=N)N)C(=O)O)[C@@H](C)CC | Calmodulin-1, Ca2+-bound N-lobe (CALM1, Homo sapiens, UniProt P0DP23) | binding, isothermal titration calorimetry | – | pH 7.4, 15 °C, N-lobe, CaV2.1 IQ domain, added: Ca2+ | – | ΔS | 18 ± 1 cal/mol/K
O=P(O)(O)O[C@@H]1[C@@H](OP(=O)(O)O)[C@H](OP(=O)(O)O)[C@H](O)[C@H](OP(=O)(O)O)[C@H]1OP(=O)(O)O | HDAC3 (Homo sapiens, UniProt O15379) | deacetylase activity, activator, fluorogenic | – | – | – | activation concentration | ~10 nM
